{"data": "Results pooled from the literature", "ESR1": "Estrogen receptor (ESR1, Homo sapiens, UniProt P03372)", "IDO1": "Indoleamine 2,3-dioxygenase 1 (IDO1, Homo sapiens, UniProt P14902)", "note": "Lines come from different studies, so protocols differ. Numbers after ± are the reported error."}
{"Compound": "CCN1c2ccccc2C(=O)N(C)c2cnc(Nc3ccc(C(=O)N4CCC(N5CCN(C)CC5)CC4)cc3OC)nc21", "target": "MAPK7 (Homo sapiens, UniProt Q13164)", "test": "kinase activity", "IC50": "0.173 ± 0.037 µM"}
{"Compound": "CC(C)NC(=O)CSc1nc2ccc(NC(=O)CSc3ccc(Br)cc3)cc2s1", "target": "ESR1", "test": "reporter gene, antagonist", "system": "HEC-1 transfected ERα luciferase reporter", "IC50": "20 to 50 µM"}
{"Compound": "COC(=O)/C(=C/c1c[nH]c2ccc(OC)cc12)c1ccc(NS(C)(=O)=O)cc1", "target": "IDO1", "test": "enzyme activity, inhibitor", "IC50": "29.5 µM"}
{"Compound": "CN(C)c1ccc(CCCN2CCc3ccc(/C=C/C(=O)NO)cc3C2=O)cc1", "target": "HDAC1 (Homo sapiens, UniProt Q13547)", "test": "enzyme activity, inhibitor", "IC50": "< 0.1 µM"}
{"Compound": "COc1cc([C@@H]2c3cc4c(cc3[C@@H](CC(C)(C)O)[C@H]3COC(=O)[C@H]23)OCO4)cc(OC)c1OC", "target": "Tubulin alpha/beta heterodimer (Leishmania infantum, UniProt A0A381MCS3+A4HTR0)", "test": "tubulin polymerization, inhibitor", "conditions": "37 °C, together with: tubulin 1.2 mg/mL", "IC50": "6.9 ± 0.5 µM"}
{"Compound": "O=C(O)CNC(=O)c1cc(C(=O)O)cc([C@H]2CCN[C@@H]2C(=O)O)c1", "target": "Glutamate receptor ionotropic, NMDA 2D, with GluN1 (Rattus norvegicus, UniProt Q62645)", "test": "ion current, antagonist, two-electrode voltage clamp", "system": "Xenopus oocytes", "conditions": "GluN1/GluN2D, together with: glycine 100 µM and glutamate 1 µM", "IC50": "44.3 ± 7.9 µM"}
{"Compound": "O=C(CC1Cc2ccccc2C1)N[C@H](CN1CCC1)[C@H](O)c1ccc2c(c1)OCCO2", "target": "UGCG (Canis lupus familiaris, UniProt A0A8I3MXG6)", "test": "inhibitor, refers to: glucosylceramide", "system": "MDCK", "conditions": "24 h", "IC50": "0.0211 µM"}
{"Compound": "O=C(Nc1ccc(-c2nc3ccccc3[nH]2)cc1)c1ccccc1Br", "target": "Tyrosine-protein kinase SYK, with FCER1G (SYK, Homo sapiens, UniProt P43405)", "test": "protein binding, inhibitor, TR-FRET", "IC50": "> 100 µM"}
{"Compound": "COc1cc(-c2nc3sc4cc(-c5ccccc5)ccc4c3c(=O)[nH]2)ccc1OCC(=O)O", "target": "FGFR1 (Homo sapiens, UniProt P11362)", "test": "kinase activity, inhibitor, AlphaScreen", "conditions": "together with: biotinylated peptide substrate", "IC50": "75 µM"}
{"Compound": "S=c1[nH]c(-c2ccccc2)cs1", "target": "MMP2 (Homo sapiens, UniProt P08253)", "test": "inhibitor", "IC50": "> 200 µM"}
{"Compound": "N#Cc1cnc(Nc2nc3ccccc3o2)nc1C1CCCCC1", "target": "Grm5 (Rattus norvegicus, UniProt P31424)", "test": "calcium mobilization, negative allosteric modulator", "conditions": "together with: glutamate EC80", "IC50": "0.216 ± 0.071 µM"}
{"Compound": "Cc1ccc(SCC(=O)Nc2ccc3nc(SCC(=O)NC(C)C)sc3c2)c(C)c1", "target": "ESR1", "test": "reporter gene, antagonist", "system": "HEC-1 transfected ERα luciferase reporter", "IC50": "20 to 50 µM"}
{"Compound": "NC(=O)c1cn(-c2ccc(F)cc2)c2ccc(CN3CCCCCC3)cc2c1=O", "target": "Grm2 (Rattus norvegicus, UniProt P31421)", "test": "calcium mobilization, negative allosteric modulator", "IC50": "2.08 µM"}
{"Compound": "COC(=O)[C@@]1(C)C=C(C(=O)OCc2cccc(C(=O)Nc3ccc(Nc4nccc(-c5cccnc5)n4)c(C)c3)c2)C(=O)CC1", "target": "MAPK8 (Homo sapiens, UniProt P45983)", "test": "enzyme activity", "conditions": "together with: glutathione 10 mM", "IC50": "0.349 ± 0.024 µM"}
{"Compound": "OC[C@H]1[C@@H](O)[C@H](O)[C@@H](O)CN1CCCCCOCc1ccc(Br)cc1", "target": "Beta-glucosidase (GBA2, Homo sapiens, UniProt Q9HCG7)", "test": "inhibitor, 4-methylumbelliferyl glucoside", "system": "HEK293T overexpressing GBA2 homogenate", "IC50": "0.00025 µM"}
{"Compound": "COc1ccc2[nH]cc(/C=C/c3cccc(F)c3)c2c1", "target": "IDO1", "test": "enzyme activity, inhibitor", "IC50": "3.1 µM"}
{"Compound": "CCCCCCCCCCCCNC(=S)NCCCC[C@H](NC(=O)c1ccccc1)C(=O)N[C@H](C)C(=O)N[C@@H](CCCNC(=N)N)C(N)=O", "target": "SIRT2 (Homo sapiens, UniProt Q8IXJ6)", "test": "deacetylation, inhibitor", "conditions": "NAD+ 500 µM, together with: acetylated peptide 50 µM", "IC50": "0.17 ± 0.01 µM"}
{"Compound": "Cc1cc(-c2ccc(C3(c4ccc(Cl)cc4)CCNCC3)cc2)ccn1", "target": "LATS1 (Homo sapiens, UniProt O95835)", "test": "kinase activity, inhibitor, radiometric HotSpot", "conditions": "together with: ATP 10 µM", "IC50": "> 10 µM"}
{"Compound": "CCOc1ccccc1Nc1nnc(SCC(=O)Nc2cc(F)ccc2F)s1", "target": "CD28, with CD80 (Homo sapiens, UniProt P10747)", "test": "CD28–CD80 binding, inhibitor, competitive ELISA", "conditions": "together with: biotinylated CD80", "IC50": "18.9 µM"}
{"Compound": "CN1CC[C@H](c2c(O)cc(O)c3c(=O)cc(-c4ccc(C(C)(C)C)cc4)oc23)[C@H](O)C1", "target": "Cyclin-dependent kinase 9, with cyclin T1 (CDK9, Homo sapiens, UniProt P50750)", "test": "inhibitor", "conditions": "with cyclin T1, GST-CTD substrate", "IC50": "0.0193 µM"}
{"note": "Excerpt of the above:"}
{"Compound": "OC[C@H]1[C@@H](O)[C@H](O)[C@@H](O)CN1CCCCCOCc1ccc(Br)cc1", "target": "Beta-glucosidase (GBA2, Homo sapiens, UniProt Q9HCG7)", "test": "inhibitor, 4-methylumbelliferyl glucoside", "system": "HEK293T overexpressing GBA2 homogenate", "IC50": "0.00025 µM"}
